Assay results gathered from unrelated publications.
A part holds a random share of what one study measured. Positions count from the first letter of the parent shown.

Block 1 — method: protein binding microarray; form: double-stranded DNA, one strand shown; sample: in vitro; concentration: not given; relative to: not given; direction: higher = stronger binding; measurement: E-score
Target: Histone acetyltransferase KAT6A, both winged helices, GST fusion (KAT6A, Homo sapiens, UniProt Q92794, residues 1-181)
Notes: 8-mer, flanks averaged, mean of 2 arrays, mostly near background
Construct (chain): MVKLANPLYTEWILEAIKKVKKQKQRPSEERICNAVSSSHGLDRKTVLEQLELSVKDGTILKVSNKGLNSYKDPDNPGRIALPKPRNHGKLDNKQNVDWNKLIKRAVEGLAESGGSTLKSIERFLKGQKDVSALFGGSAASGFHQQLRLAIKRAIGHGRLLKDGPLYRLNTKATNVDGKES
CTTCATAC: -0.0536
ATCCCTCA: -0.042
CGGGGGAC: 0.166
GTTAACCA: -0.0277
AAACCAAG: -0.048
CGTTCCAC: 0.198
ACCGTTGC: 0.19
ATCATCTG: -0.0501
AGAGTGGA: -0.156
GATGAACC: -0.0131
CGCGGCCA: 0.324
ACGTGCTG: -0.116
AATAAACA: -0.0401
AGATGTAC: -0.105
CACCACCG: 0.124
ATCCAAGC: -0.114
AAAGTTCT: -0.0172
CTAACCTA: -0.135
GGCTGGTA: -0.149
GTACTGGA: -0.0824
AGTGCCGA: 0.202

Block 2 — target: CCNE2, cyclin fold, Cln2 fusion (human); method: yeast growth competition, sequencing; sample: yeast; notes: weak parent motif; relative to: not given; direction: higher = stronger binding; measurement: normalised enrichment score
Starting sequence: SLBP docking peptide (human); ARYKRKLLINDFG
L7E: 0.204
D11G: 1.51
F12E: 0.61
R2K: 0.479
A1M: 0.975
A1E: 0.263
R5S: 1.09
K4Y: 0.0579
D11C: 0.702
L7V: 0.205
L7I: -0.248
I9L: 0.991
K4N: 0.841
N10K: 0.846
N10W: 1.41
K4M: 1.01
L7A: -0.151
L7S: 0.18
I9S: 1.62
F12M: 0.913
N10L: 1.8
F12D: 0.838
I9T: 0.483
I9G: 1.01
R2V: 0.738

Block 3 — target: CREB5, bZIP domain (human); method: DHFR protein complementation; sample: yeast; relative to: wild-type JUN-FOS pair; direction: higher = stronger binding; measurement: binding fitness
Notes: single substitutions, most at no-binding floor
Starting sequence: JUN, bZIP domain (human); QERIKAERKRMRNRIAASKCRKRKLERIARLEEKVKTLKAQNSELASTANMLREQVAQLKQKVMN; partner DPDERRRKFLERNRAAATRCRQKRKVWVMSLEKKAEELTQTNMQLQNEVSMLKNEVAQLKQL
S43T: -0.162 natural log
Q55L: -0.517 natural log
E44P: -1.39 natural log
L59G: -1.24 natural log
L38H: -1.2 natural log
K36H: -0.389 natural log
A57S: -0.366 natural log
E33A: -0.33 natural log
T48N: -0.667 natural log
Q41P: -1.39 natural log
V56K: -0.791 natural log
K34W: -0.346 natural log

Block 4 — method: RNA Bind-n-Seq; form: RNA; sample: in vitro; concentration: 365 nM; relative to: no-protein control; direction: higher = stronger binding; measurement: RBNS enrichment (R)
Target: RNA binding protein fox-1 homolog 2, RRM domain, GST-SBP tag (RBFOX2, Homo sapiens, UniProt O43251-10, residues 100-194)
Notes: natural RNA segment, single round, ends assumed
Shared flanks, not repeated: GGGAGUUCUACAGUCCGACGAUC … UGGAAUUCUCGGGUGCCAA
Target sequence (chain): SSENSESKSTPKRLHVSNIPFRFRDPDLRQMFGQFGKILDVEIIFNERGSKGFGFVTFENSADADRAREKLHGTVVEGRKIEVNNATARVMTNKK
UAAGACACUGUGACAGUUGUCUGUCGGUCCACUGUGUUUAGUUGCAAAGAUUUCACCAUGUGUGUUGUUUUUGUUACUGUCUUAAAGGGUGCACAUUUGUGAUCAGCAUU: 0.326
AGCAGUGGCUUUUCACAGACAAAGUCAUAAUGCCCUGCAGUCUUGGGCUCAAGCGAUUCUCUCUUCCUUGGCCUCUGGAGUAGACUAAAUGUGUUAGUCUUUGAAUGGAA: 9.29
GUGAUGUGAAACGCUGCACUACUGCGGUGAAUGGGUUCACACAUGGGUAAUGAGCAAAACCGAAAGCUCGGUGUGACUCAGUUUCCUCACUCCCAUUUUGCUUUAAUUUC: 0.535
AAAAGUUGCCAUUUCAACUACGUCCCAACAUUCCCUAAUAGGGUAUUCAGGGAACCUGUCUUAAAUUGUGCUUAUCUAAAUCUUGGAACUUUGAGCUAGGGGAGGAGAAU: 0.368
AAACCAGUCUGUGUGGCCAAGCUGAUGGGAUUUGAAAAGAGUGGAUAAUUUUUAGCCUUUCCAAAAUGCAAAUAACUUGGAUAUAUUUCCAUUUUCCAGCUAUAGAGAGA: 0.585
UCAUUAAUGUUAAAAGAGCAGCCACUGUUUUGUUGAAACAAACAGCUUAACUUCAGAAAUAAGAACUAGCACACUUAGACAAACAGGAGAGCAGGGGUUUGAAGCCAGCU: 0.426
CUGCCUCGGCGGUAUCCACAGAAGACAGGCAAGAGGAUUGGAGCAGUUUUCUCACAGGUCUGCAAUUCUGUUUUUCUCCAAGUACAUUAUGACCCCCUCAUCCUUCUCUU: 0.479
GAAGCUCUAGCUUAGCCUUCUCAGUAAGGUGUAAGAAGCUGGUGUUGCUGUGUAGUGUUAAUUUAUUCUGAGGAUGUGUGGCAAGCGCCUGGCACUGGGUAAAUGUAUAG: 0.743

Further values, each from its own experiment
CYC1 (Homo sapiens, UniProt P08574) — cross-linked residues (UQCR10 (Homo sapiens, UniProt Q9UDW1); cross-linking MS; cells; together with: BSPNO): K318 to A2

Excerpt of the above (block 2):
A1E: 0.263
R5S: 1.09
K4Y: 0.0579
D11C: 0.702
L7V: 0.205
L7I: -0.248
I9L: 0.991
K4N: 0.841
N10K: 0.846
